Published values collected from several papers.
Each numbered part is a random draw from the data of one study; scales do not carry over between parts. “And” joins repeats or separate records; there may be more than shown.
Sequence of UniProt Q15418 (whole entry, looked up): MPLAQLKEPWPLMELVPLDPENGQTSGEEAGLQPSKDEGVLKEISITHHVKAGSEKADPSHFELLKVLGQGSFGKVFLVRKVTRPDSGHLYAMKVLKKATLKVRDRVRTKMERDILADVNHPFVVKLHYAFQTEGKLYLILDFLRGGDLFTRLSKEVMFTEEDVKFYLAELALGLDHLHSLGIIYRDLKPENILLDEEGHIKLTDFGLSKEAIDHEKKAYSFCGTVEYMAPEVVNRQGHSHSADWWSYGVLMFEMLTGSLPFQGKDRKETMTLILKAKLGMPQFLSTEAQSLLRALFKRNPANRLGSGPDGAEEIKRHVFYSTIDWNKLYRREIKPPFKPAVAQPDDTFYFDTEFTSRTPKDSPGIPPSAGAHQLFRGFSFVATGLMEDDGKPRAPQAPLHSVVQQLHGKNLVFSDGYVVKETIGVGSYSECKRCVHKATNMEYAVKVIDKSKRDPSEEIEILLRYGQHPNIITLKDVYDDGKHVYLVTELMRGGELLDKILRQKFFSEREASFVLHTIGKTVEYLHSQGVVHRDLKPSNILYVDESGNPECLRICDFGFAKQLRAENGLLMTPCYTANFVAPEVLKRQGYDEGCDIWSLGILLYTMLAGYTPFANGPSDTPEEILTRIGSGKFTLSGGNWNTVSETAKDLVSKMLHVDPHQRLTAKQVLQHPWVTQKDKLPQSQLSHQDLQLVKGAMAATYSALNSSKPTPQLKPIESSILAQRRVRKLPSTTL
Sequence of UniProt P35626 (whole entry, looked up): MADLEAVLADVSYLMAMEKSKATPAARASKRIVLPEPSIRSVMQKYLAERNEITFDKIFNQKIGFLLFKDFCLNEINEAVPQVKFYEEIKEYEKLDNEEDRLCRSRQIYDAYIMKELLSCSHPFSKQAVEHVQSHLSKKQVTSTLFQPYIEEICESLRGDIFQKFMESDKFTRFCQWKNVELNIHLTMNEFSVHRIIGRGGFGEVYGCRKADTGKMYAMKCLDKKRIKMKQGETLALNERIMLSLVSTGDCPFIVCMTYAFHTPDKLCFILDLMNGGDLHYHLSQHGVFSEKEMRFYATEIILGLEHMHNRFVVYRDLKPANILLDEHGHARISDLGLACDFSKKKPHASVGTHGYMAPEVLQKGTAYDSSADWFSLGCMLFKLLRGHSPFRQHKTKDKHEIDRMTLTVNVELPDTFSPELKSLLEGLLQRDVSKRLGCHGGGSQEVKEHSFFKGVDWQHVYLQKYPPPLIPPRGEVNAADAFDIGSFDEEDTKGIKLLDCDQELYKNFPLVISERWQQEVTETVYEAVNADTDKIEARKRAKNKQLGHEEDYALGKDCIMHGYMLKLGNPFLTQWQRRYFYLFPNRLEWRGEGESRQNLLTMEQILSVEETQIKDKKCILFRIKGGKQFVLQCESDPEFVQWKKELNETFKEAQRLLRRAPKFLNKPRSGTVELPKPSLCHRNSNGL
Sequence of UniProt Q9NQU5 (whole entry, looked up): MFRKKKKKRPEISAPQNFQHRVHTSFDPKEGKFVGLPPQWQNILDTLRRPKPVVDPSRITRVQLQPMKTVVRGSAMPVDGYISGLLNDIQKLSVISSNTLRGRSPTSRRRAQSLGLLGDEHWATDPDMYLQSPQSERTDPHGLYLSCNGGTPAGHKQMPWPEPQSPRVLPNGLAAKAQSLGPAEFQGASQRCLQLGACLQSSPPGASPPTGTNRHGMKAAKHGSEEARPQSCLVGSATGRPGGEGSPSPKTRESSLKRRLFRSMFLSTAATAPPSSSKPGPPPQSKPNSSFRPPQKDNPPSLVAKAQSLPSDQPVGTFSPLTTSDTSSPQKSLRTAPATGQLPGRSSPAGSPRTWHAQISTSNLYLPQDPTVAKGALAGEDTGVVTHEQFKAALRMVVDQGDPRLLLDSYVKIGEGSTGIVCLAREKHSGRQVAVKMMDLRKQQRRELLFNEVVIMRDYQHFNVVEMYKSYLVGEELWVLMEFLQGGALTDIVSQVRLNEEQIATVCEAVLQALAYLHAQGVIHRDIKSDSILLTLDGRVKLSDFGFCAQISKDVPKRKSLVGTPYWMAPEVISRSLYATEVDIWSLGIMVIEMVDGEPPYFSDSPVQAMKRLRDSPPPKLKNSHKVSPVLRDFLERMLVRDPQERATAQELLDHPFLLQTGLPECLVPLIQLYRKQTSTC
Sequence of UniProt Q9Y2U5 (whole entry, looked up): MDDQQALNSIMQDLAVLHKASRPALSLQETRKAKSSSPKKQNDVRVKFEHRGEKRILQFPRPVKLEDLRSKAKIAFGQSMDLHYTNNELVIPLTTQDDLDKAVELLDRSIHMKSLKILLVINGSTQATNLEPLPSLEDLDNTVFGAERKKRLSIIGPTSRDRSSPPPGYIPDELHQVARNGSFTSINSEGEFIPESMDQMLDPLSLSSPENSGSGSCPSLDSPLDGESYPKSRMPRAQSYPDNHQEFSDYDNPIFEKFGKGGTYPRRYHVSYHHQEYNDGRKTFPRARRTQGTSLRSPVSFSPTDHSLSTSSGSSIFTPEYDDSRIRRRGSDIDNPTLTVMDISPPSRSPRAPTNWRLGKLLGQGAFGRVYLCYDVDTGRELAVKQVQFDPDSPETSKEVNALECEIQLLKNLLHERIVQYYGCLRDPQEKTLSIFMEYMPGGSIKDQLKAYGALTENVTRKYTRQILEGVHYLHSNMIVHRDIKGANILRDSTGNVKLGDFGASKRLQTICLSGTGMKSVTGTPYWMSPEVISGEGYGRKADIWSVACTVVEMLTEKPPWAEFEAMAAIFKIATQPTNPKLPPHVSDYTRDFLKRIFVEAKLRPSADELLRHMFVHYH
Sequence of UniProt Q7KZI7 (whole entry, looked up): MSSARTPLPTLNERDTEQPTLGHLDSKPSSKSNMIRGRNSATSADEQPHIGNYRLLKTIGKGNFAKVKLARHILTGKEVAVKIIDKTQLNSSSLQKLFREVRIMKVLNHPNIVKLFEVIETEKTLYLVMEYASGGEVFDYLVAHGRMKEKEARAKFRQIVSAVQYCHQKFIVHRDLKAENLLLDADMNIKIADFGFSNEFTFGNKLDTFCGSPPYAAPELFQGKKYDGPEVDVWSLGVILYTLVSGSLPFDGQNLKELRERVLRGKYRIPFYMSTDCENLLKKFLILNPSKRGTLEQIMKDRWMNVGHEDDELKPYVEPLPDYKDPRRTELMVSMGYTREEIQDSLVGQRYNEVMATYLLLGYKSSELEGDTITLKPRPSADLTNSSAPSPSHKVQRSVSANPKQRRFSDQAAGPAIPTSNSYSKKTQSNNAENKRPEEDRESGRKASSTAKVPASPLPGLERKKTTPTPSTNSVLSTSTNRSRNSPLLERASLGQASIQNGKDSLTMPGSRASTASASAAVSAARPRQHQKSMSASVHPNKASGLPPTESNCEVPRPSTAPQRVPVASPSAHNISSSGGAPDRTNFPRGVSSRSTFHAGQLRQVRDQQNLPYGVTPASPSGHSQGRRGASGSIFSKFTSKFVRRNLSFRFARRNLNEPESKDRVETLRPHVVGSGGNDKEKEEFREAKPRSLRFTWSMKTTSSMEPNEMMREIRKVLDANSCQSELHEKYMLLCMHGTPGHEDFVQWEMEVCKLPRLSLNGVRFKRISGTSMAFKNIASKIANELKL
Sequence of UniProt P05771 (whole entry, looked up): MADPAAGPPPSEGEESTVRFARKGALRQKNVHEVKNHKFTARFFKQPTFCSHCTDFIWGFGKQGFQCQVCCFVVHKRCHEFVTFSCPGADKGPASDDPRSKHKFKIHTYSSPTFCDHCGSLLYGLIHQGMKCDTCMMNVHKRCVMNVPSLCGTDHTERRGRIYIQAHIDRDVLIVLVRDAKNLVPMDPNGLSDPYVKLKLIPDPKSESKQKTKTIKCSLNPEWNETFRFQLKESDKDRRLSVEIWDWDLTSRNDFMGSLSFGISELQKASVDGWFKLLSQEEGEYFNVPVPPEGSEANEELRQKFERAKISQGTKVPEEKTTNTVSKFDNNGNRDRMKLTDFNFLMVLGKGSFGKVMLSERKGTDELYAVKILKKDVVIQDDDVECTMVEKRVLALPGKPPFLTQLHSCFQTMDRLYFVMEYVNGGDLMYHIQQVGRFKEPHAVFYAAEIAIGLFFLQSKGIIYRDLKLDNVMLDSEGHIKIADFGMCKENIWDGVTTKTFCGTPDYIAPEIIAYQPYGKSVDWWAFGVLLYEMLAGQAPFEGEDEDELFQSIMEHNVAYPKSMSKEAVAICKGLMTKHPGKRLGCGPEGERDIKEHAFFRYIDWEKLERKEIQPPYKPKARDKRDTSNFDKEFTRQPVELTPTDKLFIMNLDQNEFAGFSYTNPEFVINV
Sequence of UniProt P32298 (whole entry, looked up): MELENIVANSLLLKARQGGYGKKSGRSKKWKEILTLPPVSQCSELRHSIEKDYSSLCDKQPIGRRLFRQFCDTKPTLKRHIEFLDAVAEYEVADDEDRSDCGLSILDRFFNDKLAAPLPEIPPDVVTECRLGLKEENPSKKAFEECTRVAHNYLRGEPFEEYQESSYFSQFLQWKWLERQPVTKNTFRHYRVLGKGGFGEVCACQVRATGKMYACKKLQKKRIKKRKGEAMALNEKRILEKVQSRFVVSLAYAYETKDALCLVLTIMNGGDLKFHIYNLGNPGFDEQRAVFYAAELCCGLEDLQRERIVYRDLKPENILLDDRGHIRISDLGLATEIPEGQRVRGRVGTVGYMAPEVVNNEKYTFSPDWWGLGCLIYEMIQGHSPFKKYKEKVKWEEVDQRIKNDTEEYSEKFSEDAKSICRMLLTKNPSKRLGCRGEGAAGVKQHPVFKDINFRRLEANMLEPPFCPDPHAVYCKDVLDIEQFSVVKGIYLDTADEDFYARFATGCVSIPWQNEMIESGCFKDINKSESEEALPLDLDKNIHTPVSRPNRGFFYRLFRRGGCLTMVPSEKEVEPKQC

Series 1 — observed: enzyme activity; action: inhibitor; concentration: 0.5 µM; relative to: control
SMILES: COc1ccc(S(=O)(=O)N(CCO)c2ccccc2CN(C)CC=Cc2ccc(Cl)cc2)cc1
target | remaining activity
Calcium/calmodulin-dependent protein kinase type II subunit delta (CAMK2D, Homo sapiens, UniProt Q13557) | 91.8%
cAMP-dependent protein kinase catalytic subunit alpha (PRKACA, Homo sapiens, UniProt P17612) | 104%
Inhibitor of nuclear factor kappa-B kinase subunit epsilon (IKBKE, Homo sapiens, UniProt Q14164) | 93.7%
Mitogen-activated protein kinase 9 (MAPK9, Homo sapiens, UniProt P45984) | 85.5%
G protein-coupled receptor kinase 3 (GRK3, Homo sapiens, UniProt P35626) | 105%
Mitogen-activated protein kinase kinase kinase 3 (MAP3K3, Homo sapiens, UniProt Q99759) | 99.8%
Protein kinase C beta type, isoform beta-I (PRKCB, Homo sapiens, UniProt P05771) | 97.7%
Cyclin-dependent kinase 4, with cyclin D1 (CDK4, Homo sapiens, UniProt P11802) | 94.6%

Series 2 — technique: protein-binding microarray; molecule type: double-stranded DNA, one strand shown; medium: in vitro; concentration: not given; direction: higher = stronger binding
Target: Myc proto-oncogene protein, bHLH-zipper, MAX partner unstated (MYC, Homo sapiens, UniProt P01106, residues 368-449)
Sequence of UniProt P01106 (368-449, looked up): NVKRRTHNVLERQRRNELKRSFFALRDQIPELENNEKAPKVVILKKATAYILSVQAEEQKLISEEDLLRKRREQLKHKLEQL
Notes: k-mer, scored over probes, only values ≥0.25
Strand | E-score
CACGTGCC | 0.493
ACATGAGC | 0.266
ACGTCGGC | 0.254
CAGCGTGG | 0.423
ACGCGCGA | 0.251
CACTCCCC | 0.287
ACGTTGCC | 0.312
ACACACGC | 0.378

Series 3 — observed: cell-free assay; technique: competition with immobilised ligand; concentration: 1 µM
Compound: N#Cc1ccc(Nc2ccc3[nH]c(=O)[nH]c3c2)c(Cl)c1
target | remaining binding [%]
Mitogen-activated protein kinase kinase kinase 13 (MAP3K13, Homo sapiens, UniProt O43283) | 100
Tyrosine-protein kinase ABL1, non-phosphorylated (ABL1, Homo sapiens, UniProt P00519, Q252H) | 89
Testis-specific serine/threonine-protein kinase 3 (TSSK3, Homo sapiens, UniProt Q96PN8) | 100
Serine/threonine-protein kinase OSR1 (OXSR1, Homo sapiens, UniProt O95747) | 75
Serine/threonine-protein kinase PAK 6 (PAK6, Homo sapiens, UniProt Q9NQU5) | 85
Tyrosine-protein kinase Fyn (FYN, Homo sapiens, UniProt P06241) | 89
Dual specificity protein kinase CLK3 (CLK3, Homo sapiens, UniProt P49761) | 96
Ribosomal protein S6 kinase alpha-5, N-terminal kinase domain (RPS6KA5, Homo sapiens, UniProt O75582) | 100
Ribosomal protein S6 kinase alpha-1, N-terminal kinase domain (RPS6KA1, Homo sapiens, UniProt Q15418) | 93
RAC-gamma serine/threonine-protein kinase (AKT3, Homo sapiens, UniProt Q9Y243) | 69
Mitogen-activated protein kinase 14 (MAPK14, Homo sapiens, UniProt Q16539) | 93
Serine/threonine-protein kinase WNK2 (WNK2, Homo sapiens, UniProt Q9Y3S1) | 100
5'-AMP-activated protein kinase catalytic subunit alpha-2 (PRKAA2, Homo sapiens, UniProt P54646) | 81
Serine/threonine-protein kinase MARK2 (MARK2, Homo sapiens, UniProt Q7KZI7) | 78
Serine/threonine-protein kinase PAK 4 (PAK4, Homo sapiens, UniProt O96013) | 92
Tyrosine-protein kinase JAK2, JH1 (JAK2, Homo sapiens, UniProt O60674) | 100
Ribosomal protein S6 kinase alpha-1, C-terminal kinase domain (RPS6KA1, Homo sapiens, UniProt Q15418) | 100
Serine/threonine-protein kinase 26 (STK26, Homo sapiens, UniProt Q9P289) | 96
G protein-coupled receptor kinase 4 (GRK4, Homo sapiens, UniProt P32298) | 100
MAP/microtubule affinity-regulating kinase 3 (MARK3, Homo sapiens, UniProt P27448) | 100
Serine/threonine-protein kinase 25 (STK25, Homo sapiens, UniProt O00506) | 100
G protein-coupled receptor kinase 3 (GRK3, Homo sapiens, UniProt P35626) | 100
High affinity nerve growth factor receptor (NTRK1, Homo sapiens, UniProt P04629) | 93
Mitogen-activated protein kinase kinase kinase 2 (MAP3K2, Homo sapiens, UniProt Q9Y2U5) | 100
Tyrosine-protein kinase ABL1, phosphorylated (ABL1, Homo sapiens, UniProt P00519, F317L) | 84

Series 4 — host: mouse; medium: microsomes or S9; concentration: 2 µM; time: 0.5 h
Structure (SMILES) | remaining compound [%]
CNc1ccc(Nc2ccc(Cl)c(C#N)n2)cn1 | 0.00595
Fc1ccc(Nc2c(-c3ccccc3)nc3ccccn23)cc1 | 17.7
CC1CCC(NS(=O)(=O)CC(=O)NC(C)CCc2ccc(Br)cc2)CC1 (stereo not drawn) | 2.17
COc1c(Br)ccc2c1sc1ncnc(NC(C)C(=O)O)c12 (stereo not drawn) | 77.2

Other studies, line by line
Structure (SMILES) | tested on | test | test system | setting | scale | endpoint | result
O=C(COc1ccccc1P(=O)(O)O)NCC(F)(F)c1ccc(F)c(F)c1 | 14-3-3 protein beta/alpha (Homo sapiens, UniProt P31946) | inhibitor, fluorescence anisotropy competition | – | together with: FITC-labelled client peptide | – | Ki | ~500 µM
CC(C)(C)c1cnc(CSc2cnc(NC(=O)C3CCN(CCCCCCCCSc4cccc5c4CN(C4CCC(=O)NC4=O)C5=O)CC3)s2)o1 (stereo not drawn) | HuT78 | cell growth or viability, trypan blue | – | 48 h | – | IC50 | 0.062 µM
c1ccc(Oc2ccc(Nc3c4c(nc5ccccc35)CCC4)cc2)cc1 | Leishmania donovani | parasite killing | DD8, promastigotes | 0.66 µM, 48 h | – | inhibition | 52% and 54%
CN(C(=O)c1ccn2ncc(-c3ccc(C(N)=O)cc3)c2c1)c1ccc(C#N)cn1 | Phosphatidylinositol 4-kinase beta (PI4KB, Homo sapiens, UniProt Q9UBF8) | enzyme activity, inhibitor, ADP-Glo | – | – | – | IC50 | 1 µM
C[C@@H]1[C@H](O)[C@@H](C)/C=C/C=C/C=C/C=C/C=C/C=C/C=C/[C@H](O[C@@H]2O[C@H](C)[C@@H](O)[C@H](N)[C@@H]2O)C[C@@H]2O[C@](O)(C[C@@H](O)C[C@@H](O)[C@H](O)CC[C@@H](O)C[C@@H](O)CC(=O)O[C@H]1C)C[C@H](O)[C@H]2C(=O)O | THP-1 | – | – | 4 µM, cytotoxicity | – | inhibition | 98%
O=C(COc1ccc(Cl)cc1)NC1CCC(NC(=O)COc2ccc(Cl)cc2)CC1 (stereo not drawn) | L444P/L444P Gaucher fibroblasts | 4-MUG hydrolysis in lysate | – | 0.02 µM, 72 h | relative to: vehicle | enzyme activity | 113% and 111% and 112% and 115% and 110%

Excerpt of the above (series 3):
target | remaining binding [%]
Tyrosine-protein kinase JAK2, JH1 (JAK2, Homo sapiens, UniProt O60674) | 100
Serine/threonine-protein kinase 25 (STK25, Homo sapiens, UniProt O00506) | 100
Tyrosine-protein kinase Fyn (FYN, Homo sapiens, UniProt P06241) | 89
Ribosomal protein S6 kinase alpha-1, C-terminal kinase domain (RPS6KA1, Homo sapiens, UniProt Q15418) | 100
